Experimental data from different studies.
Several values in a cell are separate wells, animals, samples, runs or records. Numbers after ± are the reported error.

Compound | system | setting | plasma concentration
O=C1C2CC3CC1CC(C(=O)N1CCN(c4ccc([N+](=O)[O-])c5ncccc45)CC1)(C3)C2 | ICR mice male, plasma | intravenous, 1 mg/kg, 1 h | 6.29 ng/mL
COc1cc(N2CCN(C(=O)C3CCCN3)CC2)ccc1Nc1ncc(Cl)c(Nc2ccccc2P(C)(C)=O)n1 (centres unmarked) | mice, plasma | oral, 10 mg/kg, 10 h | 117 ng/mL
O=C1CCC(N2Cc3cc(C(=O)O)c(F)cc3C2=O)C(=O)N1 (centres unmarked) | CD-1 mice | intravenous, 1 mg/kg, 8 h | not detected
[2H]C([2H])([2H])C1(C([2H])([2H])[2H])NC(=O)N(c2ccc(F)c(C(C)(F)F)c2)C1=O | male Swiss outbred mice, plasma | oral, 100 mg/kg, 24 h | 40200 ± 3340 ng/mL
C=CC(=O)N1CCCC(n2c(=O)c3ncccc3n(Cc3ccc(Oc4ccccc4)cc3)c2=O)C1 (centres unmarked) | male BALB/c mice, plasma | intraperitoneal, 200 mg/kg, 2 h | 26600 ng/mL and 38600 ng/mL
Cc1ncsc1-c1ccc(CNC(=O)[C@@H]2C[C@@H](O)CN2C(=O)[C@@H](NC(=O)COCC(C)(COCCOCCOCCNC(=O)C[C@@H]2N=C(c3ccc(Cl)cc3)c3c(sc(C)c3C)-n3c(C)nnc32)COCCOCCOCCNC(=O)C[C@@H]2N=C(c3ccc(Cl)cc3)c3c(sc(C)c3C)-n3c(C)nnc32)C(C)(C)C)cc1 | male C57BL/6 mice, plasma | subcutaneous, 5 mg/kg, 5 min | 478 ng/mL and 235 ng/mL and 245 ng/mL
CCC(=O)N(C)c1ccc(Cl)c(Cl)c1 | female C57BL/6 mice | subcutaneous, 2 mg/kg, 0.5 h | 285 ng/mL
Nc1nonc1-c1nnc2c(n1)-c1ccccc1C2=O | ICR mice, plasma | intraperitoneal, 30 mg/kg, 0.5 h | 7.12 ± 1.17 µM

A few entries again:
Compound | system | setting | plasma concentration
[2H]C([2H])([2H])C1(C([2H])([2H])[2H])NC(=O)N(c2ccc(F)c(C(C)(F)F)c2)C1=O | male Swiss outbred mice, plasma | oral, 100 mg/kg, 24 h | 40200 ± 3340 ng/mL
